Published values collected from several papers.
Compare with care: the assays were run in different laboratories. Values joined by “and” are separate records of one study, mostly repeats; a detail may differ. ± gives the spread as reported.
ALDH2: Aldehyde dehydrogenase, mitochondrial (ALDH2, Homo sapiens, UniProt P05091)
Sequence of UniProt P05091 (whole entry, looked up): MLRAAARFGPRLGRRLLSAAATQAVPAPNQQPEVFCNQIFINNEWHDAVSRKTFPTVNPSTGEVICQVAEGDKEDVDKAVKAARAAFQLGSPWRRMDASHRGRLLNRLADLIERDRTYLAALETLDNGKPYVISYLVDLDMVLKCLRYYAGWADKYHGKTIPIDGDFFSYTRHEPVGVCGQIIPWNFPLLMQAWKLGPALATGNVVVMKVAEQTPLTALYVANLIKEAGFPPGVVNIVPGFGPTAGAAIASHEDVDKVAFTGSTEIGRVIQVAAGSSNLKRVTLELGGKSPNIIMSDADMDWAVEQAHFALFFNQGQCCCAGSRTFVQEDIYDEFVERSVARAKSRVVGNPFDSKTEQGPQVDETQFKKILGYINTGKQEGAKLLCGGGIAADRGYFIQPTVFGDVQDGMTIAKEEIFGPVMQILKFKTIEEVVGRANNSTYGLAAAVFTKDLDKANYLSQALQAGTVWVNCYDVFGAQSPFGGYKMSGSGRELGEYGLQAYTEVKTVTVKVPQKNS
7-alpha-hydroxycholest-4-en-3-one 12-alpha-hydroxylase: 7-alpha-hydroxycholest-4-en-3-one 12-alpha-hydroxylase (Homo sapiens, UniProt Q9UNU6)
Sequence of UniProt Q9UNU6 (whole entry, looked up): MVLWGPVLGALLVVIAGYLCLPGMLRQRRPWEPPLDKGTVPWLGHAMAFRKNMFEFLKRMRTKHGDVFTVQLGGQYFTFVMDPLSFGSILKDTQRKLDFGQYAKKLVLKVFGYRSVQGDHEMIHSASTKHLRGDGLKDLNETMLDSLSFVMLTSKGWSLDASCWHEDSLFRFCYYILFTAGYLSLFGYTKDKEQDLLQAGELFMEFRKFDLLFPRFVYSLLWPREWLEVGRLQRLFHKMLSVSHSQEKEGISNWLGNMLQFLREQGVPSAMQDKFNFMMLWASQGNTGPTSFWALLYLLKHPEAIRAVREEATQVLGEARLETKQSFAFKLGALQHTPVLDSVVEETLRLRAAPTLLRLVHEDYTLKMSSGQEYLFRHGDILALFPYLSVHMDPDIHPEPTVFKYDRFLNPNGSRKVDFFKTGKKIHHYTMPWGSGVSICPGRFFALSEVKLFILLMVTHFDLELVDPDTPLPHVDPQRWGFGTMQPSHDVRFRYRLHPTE
Sequence of UniProt P02754 (whole entry, looked up): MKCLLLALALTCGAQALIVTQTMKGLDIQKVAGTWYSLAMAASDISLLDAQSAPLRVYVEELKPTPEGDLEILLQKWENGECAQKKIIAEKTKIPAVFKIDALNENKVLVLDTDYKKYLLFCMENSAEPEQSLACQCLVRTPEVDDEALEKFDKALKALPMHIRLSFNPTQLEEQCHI
Sequence of UniProt Q9BXW6 (whole entry, looked up): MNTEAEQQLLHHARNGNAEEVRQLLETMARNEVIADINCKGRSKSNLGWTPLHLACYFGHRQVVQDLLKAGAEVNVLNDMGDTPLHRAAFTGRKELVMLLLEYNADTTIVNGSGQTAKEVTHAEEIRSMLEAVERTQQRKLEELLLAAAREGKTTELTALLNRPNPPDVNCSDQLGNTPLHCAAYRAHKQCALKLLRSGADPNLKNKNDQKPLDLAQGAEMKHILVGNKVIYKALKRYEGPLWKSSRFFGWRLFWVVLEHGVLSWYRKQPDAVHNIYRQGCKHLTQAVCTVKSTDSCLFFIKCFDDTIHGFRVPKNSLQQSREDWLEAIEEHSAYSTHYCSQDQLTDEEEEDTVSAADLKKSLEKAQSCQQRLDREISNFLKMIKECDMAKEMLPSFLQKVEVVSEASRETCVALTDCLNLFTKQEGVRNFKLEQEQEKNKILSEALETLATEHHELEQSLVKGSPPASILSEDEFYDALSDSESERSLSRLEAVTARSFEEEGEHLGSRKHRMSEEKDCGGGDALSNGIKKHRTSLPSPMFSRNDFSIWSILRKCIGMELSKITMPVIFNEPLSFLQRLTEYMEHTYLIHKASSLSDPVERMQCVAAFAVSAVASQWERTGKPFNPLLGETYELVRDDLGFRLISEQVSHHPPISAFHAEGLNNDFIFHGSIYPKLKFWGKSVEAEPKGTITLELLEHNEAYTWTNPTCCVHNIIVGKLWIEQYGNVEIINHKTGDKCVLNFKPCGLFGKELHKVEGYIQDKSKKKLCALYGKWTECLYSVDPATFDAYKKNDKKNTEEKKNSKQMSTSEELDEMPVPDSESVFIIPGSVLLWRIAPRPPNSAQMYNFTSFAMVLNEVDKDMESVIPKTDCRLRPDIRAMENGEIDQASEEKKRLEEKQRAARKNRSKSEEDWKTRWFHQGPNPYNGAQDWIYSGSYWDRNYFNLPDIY
Sequence of UniProt Q93009 (whole entry, unmodified, looked up): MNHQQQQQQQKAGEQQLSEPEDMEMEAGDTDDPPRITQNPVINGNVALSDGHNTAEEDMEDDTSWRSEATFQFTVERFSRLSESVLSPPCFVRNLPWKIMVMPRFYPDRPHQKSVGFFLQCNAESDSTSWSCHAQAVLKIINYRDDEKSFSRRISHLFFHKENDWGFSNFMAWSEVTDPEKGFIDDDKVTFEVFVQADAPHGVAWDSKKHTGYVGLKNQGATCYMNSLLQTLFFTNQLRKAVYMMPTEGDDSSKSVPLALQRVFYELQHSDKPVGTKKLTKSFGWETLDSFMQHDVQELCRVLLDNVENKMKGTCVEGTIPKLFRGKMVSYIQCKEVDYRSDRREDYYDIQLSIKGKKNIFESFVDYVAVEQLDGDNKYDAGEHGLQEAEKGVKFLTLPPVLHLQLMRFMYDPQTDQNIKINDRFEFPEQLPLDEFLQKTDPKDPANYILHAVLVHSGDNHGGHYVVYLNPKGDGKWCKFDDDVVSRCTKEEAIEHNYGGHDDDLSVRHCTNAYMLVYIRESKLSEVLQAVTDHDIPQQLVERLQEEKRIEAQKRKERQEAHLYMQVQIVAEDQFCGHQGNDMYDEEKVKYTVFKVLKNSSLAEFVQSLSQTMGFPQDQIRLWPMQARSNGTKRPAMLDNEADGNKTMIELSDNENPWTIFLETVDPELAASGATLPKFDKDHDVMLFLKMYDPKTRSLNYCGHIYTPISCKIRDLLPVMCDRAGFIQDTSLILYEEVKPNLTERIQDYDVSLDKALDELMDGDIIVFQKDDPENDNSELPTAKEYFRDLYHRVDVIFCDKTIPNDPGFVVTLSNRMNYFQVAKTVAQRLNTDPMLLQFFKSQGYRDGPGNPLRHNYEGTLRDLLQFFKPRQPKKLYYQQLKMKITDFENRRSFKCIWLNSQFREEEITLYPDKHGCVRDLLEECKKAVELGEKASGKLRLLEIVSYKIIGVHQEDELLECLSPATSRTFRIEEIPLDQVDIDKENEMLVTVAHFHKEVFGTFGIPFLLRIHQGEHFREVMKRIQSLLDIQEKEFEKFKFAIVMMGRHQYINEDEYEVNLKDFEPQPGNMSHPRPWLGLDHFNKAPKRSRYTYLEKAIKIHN
Sequence of UniProt P61823 (whole entry, looked up): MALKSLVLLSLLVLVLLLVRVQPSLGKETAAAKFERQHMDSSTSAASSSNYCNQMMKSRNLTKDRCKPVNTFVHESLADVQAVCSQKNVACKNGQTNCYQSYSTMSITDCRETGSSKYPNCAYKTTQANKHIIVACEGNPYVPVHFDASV
Sequence of UniProt P42336 (whole entry, looked up): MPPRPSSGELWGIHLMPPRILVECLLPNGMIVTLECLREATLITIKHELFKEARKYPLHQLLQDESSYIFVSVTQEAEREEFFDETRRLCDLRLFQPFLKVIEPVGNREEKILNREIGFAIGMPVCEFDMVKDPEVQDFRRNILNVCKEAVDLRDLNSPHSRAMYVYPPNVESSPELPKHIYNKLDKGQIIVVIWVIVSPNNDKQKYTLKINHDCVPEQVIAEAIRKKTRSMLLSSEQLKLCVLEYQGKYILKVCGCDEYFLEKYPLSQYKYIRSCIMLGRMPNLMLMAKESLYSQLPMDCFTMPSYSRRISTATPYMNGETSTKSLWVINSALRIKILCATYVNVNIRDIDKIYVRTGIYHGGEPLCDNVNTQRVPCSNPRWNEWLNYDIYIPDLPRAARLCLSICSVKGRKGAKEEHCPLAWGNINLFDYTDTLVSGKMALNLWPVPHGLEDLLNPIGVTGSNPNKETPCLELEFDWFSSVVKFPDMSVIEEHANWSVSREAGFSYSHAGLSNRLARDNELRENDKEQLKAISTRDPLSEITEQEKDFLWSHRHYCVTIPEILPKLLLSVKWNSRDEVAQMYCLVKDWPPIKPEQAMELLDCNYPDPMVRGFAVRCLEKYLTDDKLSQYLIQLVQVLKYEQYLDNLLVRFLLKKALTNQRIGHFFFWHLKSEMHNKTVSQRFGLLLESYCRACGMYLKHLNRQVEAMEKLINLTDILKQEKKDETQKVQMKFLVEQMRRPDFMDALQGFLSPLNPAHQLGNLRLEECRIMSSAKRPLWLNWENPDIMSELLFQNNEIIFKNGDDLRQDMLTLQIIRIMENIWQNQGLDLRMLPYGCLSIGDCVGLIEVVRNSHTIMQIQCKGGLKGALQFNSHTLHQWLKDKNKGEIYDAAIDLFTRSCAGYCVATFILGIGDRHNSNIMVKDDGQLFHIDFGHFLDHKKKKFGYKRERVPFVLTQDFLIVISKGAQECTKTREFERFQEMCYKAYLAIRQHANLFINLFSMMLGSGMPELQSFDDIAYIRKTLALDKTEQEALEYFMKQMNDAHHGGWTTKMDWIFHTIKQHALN
Sequence of UniProt Q99496 (whole entry, looked up): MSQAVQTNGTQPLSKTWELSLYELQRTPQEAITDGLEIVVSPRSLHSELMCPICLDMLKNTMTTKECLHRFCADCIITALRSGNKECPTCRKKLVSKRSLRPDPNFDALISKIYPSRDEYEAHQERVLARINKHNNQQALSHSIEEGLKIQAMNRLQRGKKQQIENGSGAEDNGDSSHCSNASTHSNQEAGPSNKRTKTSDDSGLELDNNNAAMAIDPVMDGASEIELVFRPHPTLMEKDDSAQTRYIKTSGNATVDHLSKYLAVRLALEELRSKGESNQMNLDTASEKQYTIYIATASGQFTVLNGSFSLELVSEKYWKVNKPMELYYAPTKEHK

Cn1cc(-c2ccc(-c3cncc(Cl)c3N3CCC4(CCNC4=O)CC3)cc2)cn1  log2 fold change (COLO 205; gene expression, microarray, measured: CDKN1C mRNA; concentration not given, 6 h; baseline: untreated cells): 1.74
CC(C)C[C@H](NC(=O)C[C@H](O)[C@H](CC(C)C)NC(=O)[C@H](Cc1c[nH]cn1)NC(=O)CNC(=O)[C@@H](NC(=O)[C@H](C)NC(=O)[C@H](Cc1c[nH]c2ccccc12)NC(=O)[C@H](CCC(N)=O)NC(=O)[C@@H](Cc1ccccc1)NC(=O)COCCOCCNC(=O)CCC(C(=O)O)N1CCN(CC(=O)O)CCN(CC(=O)O)CCN(CC(=O)O)CC1)C(C)C)C(N)=O (stereo partly drawn) [lutetium-177 labelled]  tissue uptake (BALB/c nu/nu mice, bladder; intravenous, 250 pmol, 1 h, together with: PA 300 µg): 58 ± 36 %ID/g
O=C(C[C@@H](C(F)F)n1ccc(F)n1)N1CCC(O)(Cn2cnc3c(cnn3-c3ccc(F)cc3)c2=O)CC1  Kd (USP7 (Homo sapiens, UniProt Q93009, V517I); isothermal titration calorimetry; USP7 V517I): 0.036 ± 0.005 µM
COc1ccc(-c2nc(N3CCOCC3)c3sc(CN(C)c4ncc(C(=O)NO)cn4)cc3n2)cn1  Kd (ALDH2; inhibitor, competition pulldown; SW620 and MV4-11 lysate; 1 h): > 30.2 µM
CCCCCCNc1nc(NC2CCN(C)CC2)c2cc(OC)c(OC)cc2n1  EC50 (Toxoplasma gondii; bradyzoite growth; glutamine-induced bradyzoites, glucose-free medium): 2.23 µM
Cn1cc(CNCC2CCN(c3ncc(C(=O)NO)cn3)CC2)c2ccccc21  Kd (ALDH2; inhibitor, competition pulldown; SW620 and MV4-11 lysate; 1 h): > 30.2 µM
OC[C@@H]1CO[C@](Cn2ccnc2)(c2ccc(Cl)cc2Cl)O1 (relative stereo)  Kd (7-alpha-hydroxycholest-4-en-3-one 12-alpha-hydroxylase; binding; 20 min, pH 7.4): 147 µM
O=C(O)/C=C(/CC(=O)O)C(=O)O  Kd (uncharacterized protein (Pelagibacter ubique, UniProt Q4FLC8); binding, isothermal titration calorimetry; Candidatus Pelagibacter ubique; one-set-of-sites model, together with: MgSO4 53 mM): 3.13 µM and 3.83 µM
Nc1ccn([C@@H]2O[C@H](COP(=O)(O)OP(=O)(O)O)[C@@H](O)[C@H]2O)c(=O)n1  Kd (RNASE1 (Bos taurus, UniProt P61823); binding, native mass spectrometry; surface-deposited protein; 100-fold diluted): 3.9 ± 0.2 µM
Clc1ccc(COC(Cn2ccnc2)c2ccc(Cl)cc2Cl)c(Cl)c1 (stereo not drawn)  Kd (7-alpha-hydroxycholest-4-en-3-one 12-alpha-hydroxylase; binding, Soret peak shift titration; 20% glycerol): 0.0982 µM
O=C(CCCCCN1C(=O)c2cccc3cccc(c23)C1=O)NO  Kd (ALDH2; inhibitor, competition pulldown; SW620 and MV4-11 lysate; 1 h): 0.342 µM
C=CC(=O)N1CCN(c2nc(OC[C@@H]3CCCN3C)nc3c(F)c(-c4nc(N)cc(C)c4C(F)(F)F)c(Cl)cc23)[C@@H](C)C1  Kd (GTPase KRas, GDP-bound (KRAS, Homo sapiens, UniProt P01116, A146T); SPR): 0.897 ± 0.024 µM
CC1=C[C@H](O)CC(C)(C)[C@H]1/C=C/C(C)=C/C=C/C(C)=C/C=C/C=C(C)/C=C/C=C(C)/C=C/C1=C(C)C[C@@H](O)CC1(C)C  Kd (Beta-lactoglobulin (LGB, Bos taurus, UniProt P02754); binding, fluorescence quenching; PBS; 30 min, 303 K): 3.33 µM
Cc1[nH]c2ccccc2c1-c1csc(-c2c[nH]c3ccccc23)n1  Kd (Bromodomain-containing protein 4, phosphorylated (BRD4, Homo sapiens, UniProt O60885); microscale thermophoresis): 12.9 µM
c1coc(-c2n[nH]cc2-c2ccnc3ccccc23)c1  log2 fold change (VPS15 (Candida albicans); kinase binding, MIB/MS competition; Candida albicans lysate; 1 µM; baseline: DMSO): -0.19
C=C1CCN([C@H](C)[C@](O)(Cn2cncn2)c2ccc(F)cc2F)CC1  Kd (7-alpha-hydroxycholest-4-en-3-one 12-alpha-hydroxylase; binding; 20 min, pH 7.4): 38.7 µM
CCC(=O)N1CCC(C(=O)N(C)CC(=O)N2CCN(c3nc(-c4cnc(N)nc4C(F)F)nc(N4CCOCC4)n3)CC2)CC1  Kd (PIK3CA (Homo sapiens, UniProt P42336)): 0.00037 ± 0.00013 µM
CCCCOc1ccc(CC(=O)NO)cc1  Kd (ALDH2; inhibitor, competition pulldown; SW620 and MV4-11 lysate; 1 h): 0.585 µM
CC(=O)[C@]1(O)Cc2c(O)c3c(c(O)c2[C@@H](O[C@H]2C[C@H](N)[C@H](O)[C@H](C)O2)C1)C(=O)c1ccccc1C3=O  EC90 (Toxoplasma gondii; parasite growth; HFF, bradyzoite, glutamine-induced): 1.91 µM
CC(C)c1c(-c2cccc3[nH]ccc23)[nH]c(C(=O)O)c1-c1c(Cl)ccc2[nH]ccc12  Kd (BMI1/RNF2 (Homo sapiens, UniProt P35226+Q99496); isothermal titration calorimetry): 1.7 to 2.8 µM
CC(C)CCC[C@@H](C)[C@H]1CC[C@H]2[C@@H]3CC=C4C[C@@H](O)CC[C@]4(C)[C@H]3CC[C@]12C  Kd (Oxysterol-binding protein-related protein 1 (OSBPL1A, Homo sapiens, UniProt Q9BXW6); binding, radioligand saturation binding): 0.393 µM
